Literature values as cited in several papers.
Lines come from different studies, so protocols differ. Values joined by “and” are separate records of one study, mostly repeats; a detail may differ.
Organism: Escherichia coli

| Structure (SMILES) | test | system | setting | quantity | result |
| --- | --- | --- | --- | --- | --- |
| Cc1[nH]c(C(=O)Nc2ccc(C(=O)NCC(=O)O)cc2OC(C)C)c(Cl)c1Cl |  | ATCC 25922 |  | MIC | inactive |
| CCOc1ccc(NC(=S)N(CCO)Cc2cc3cc(C)cc(C)c3[nH]c2=O)cc1 | cell growth |  |  | EC50 | 0.017 µM |
| Cc1cc(C#N)nc(N2CCN(S(=O)(=O)c3ccc(NC(=O)c4cc(CNCCCN)ccc4N(C)S(C)(=O)=O)cc3)CC2)n1 |  | 25922 |  | MIC | 2 µg/mL |
| O=C(COc1cccc2ccccc12)Nc1ccccc1[N+](=O)[O-] |  |  |  | MIC | 12.5 µg/mL |
| CSCC[C@H](NC(=O)[C@H](CCCNC(=N)N)NC(=O)[C@H](Cc1c[nH]c2ccccc12)NC(=O)[C@H](CCC(N)=O)NC(=O)[C@H](Cc1c[nH]c2ccccc12)NC(=O)[C@H](CCCNC(=N)N)NC(=O)[C@H](CCCNC(=N)N)NC(=O)[C@H](C)NC(=O)[C@H](CCCCN)NC(=O)[C@@H](N)Cc1ccccc1)C(=O)N[C@@H](CCCCN)C(=O)N[C@@H](CCCCN)C(=O)N[C@@H](CC(C)C)C(=O)NCC(=O)N[C@@H](C)C(=O)NCCCC[C@H](NC(=O)[C@H](C)NC(=O)CNC(=O)[C@H](CC(C)C)NC(=O)[C@H](CCCCN)NC(=O)[C@H](CCCCN)NC(=O)[C@H](CCSC)NC(=O)[C@H](CCCNC(=N)N)NC(=O)[C@H](Cc1c[nH]c2ccccc12)NC(=O)[C@H](CCC(N)=O)NC(=O)[C@H](Cc1c[nH]c2ccccc12)NC(=O)[C@H](CCCNC(=N)N)NC(=O)[C@H](CCCNC(=N)N)NC(=O)[C@H](C)NC(=O)[C@H](CCCCN)NC(=O)[C@@H](N)Cc1ccccc1)C(=O)NCCCCCC(N)=O |  | ATCC 11775 |  | MBC | > 48 µM |
| Cc1cc(C)n(N)c(=O)c1C#N |  |  | concentration not given | inhibition zone diameter | 22.8 mm and 22 mm |
| N=C(N)c1ccc(-c2ccc(-c3cccs3)s2)cc1 |  |  |  | MIC | 8 µM |
| COc1ccc(-c2cc(-c3ccc([N+](=O)[O-])cc3)nc(OC)c2C#N)cc1 |  |  |  | MIC | 0.013 µM |
| CSCC[C@H](NC(=O)[C@H](CCCNC(=N)N)NC(=O)[C@H](Cc1c[nH]c2ccccc12)NC(=O)[C@H](CCC(N)=O)NC(=O)[C@H](Cc1c[nH]c2ccccc12)NC(=O)[C@H](CCCNC(=N)N)NC(=O)[C@@H](N)CCCNC(=N)N)C(=O)N[C@@H](CCCCN)C(=O)N[C@@H](CCCCN)C(=O)N[C@@H](CC(C)C)C(=O)NCC(=O)NCCCC[C@H](NC(=O)CNC(=O)[C@H](CC(C)C)NC(=O)[C@H](CCCCN)NC(=O)[C@H](CCCCN)NC(=O)[C@H](CCSC)NC(=O)[C@H](CCCNC(=N)N)NC(=O)[C@H](Cc1c[nH]c2ccccc12)NC(=O)[C@H](CCC(N)=O)NC(=O)[C@H](Cc1c[nH]c2ccccc12)NC(=O)[C@H](CCCNC(=N)N)NC(=O)[C@@H](N)CCCNC(=N)N)C(=O)NCCCCCC(N)=O | broth microdilution | ATCC 25922 |  | MIC | 30 µM |

A few entries again:
| Structure (SMILES) | test | system | setting | quantity | result |
| --- | --- | --- | --- | --- | --- |
| CSCC[C@H](NC(=O)[C@H](CCCNC(=N)N)NC(=O)[C@H](Cc1c[nH]c2ccccc12)NC(=O)[C@H](CCC(N)=O)NC(=O)[C@H](Cc1c[nH]c2ccccc12)NC(=O)[C@H](CCCNC(=N)N)NC(=O)[C@@H](N)CCCNC(=N)N)C(=O)N[C@@H](CCCCN)C(=O)N[C@@H](CCCCN)C(=O)N[C@@H](CC(C)C)C(=O)NCC(=O)NCCCC[C@H](NC(=O)CNC(=O)[C@H](CC(C)C)NC(=O)[C@H](CCCCN)NC(=O)[C@H](CCCCN)NC(=O)[C@H](CCSC)NC(=O)[C@H](CCCNC(=N)N)NC(=O)[C@H](Cc1c[nH]c2ccccc12)NC(=O)[C@H](CCC(N)=O)NC(=O)[C@H](Cc1c[nH]c2ccccc12)NC(=O)[C@H](CCCNC(=N)N)NC(=O)[C@@H](N)CCCNC(=N)N)C(=O)NCCCCCC(N)=O | broth microdilution | ATCC 25922 |  | MIC | 30 µM |
